# Experimental data gathered from unrelated publications.
# Each line is one published result; not all experiments were run side by side. Numbers after ± are the reported error.
SMILES,assay,system,setting,scale,measurement,result
COc1ncccc1-c1cnn2ccc(N3CCN(C(=O)OC(C)C)CC3)nc12,,"rat, thermal hyperalgesia model, plasma","oral, 0.3 mg/kg, 180 min",,drug concentration,37 nM
CCN1[C@@H](C(=O)NC23CCC(C(=O)O)(CC2)CC3)[C@H](c2cccc(Cl)c2F)[C@]2(C(=O)Nc3cc(Cl)ccc32)C12CCCCC2,,advanced solid tumour patients,"oral, dose not given",,grade ≥3 treatment-related adverse events,52.4%
CC[C@H](C)[C@H](NC(=O)[C@H](CO)NC(=O)[C@H](CCCNC(=N)N)NC(C)=O)C(=O)N[C@H]1CSSC[C@@H](C(=O)N[C@H](C(N)=O)[C@@H](C)O)NC(=O)[C@H](CCCNC(=N)N)NC(=O)[C@H](Cc2cnc[nH]2)NC(=O)[C@H](C)NC(=O)CNC(=O)[C@H](Cc2c[nH]c3ccccc23)NC(=O)[C@H](CC(=O)O)NC(=O)[C@H](CCC(N)=O)NC(=O)[C@H](Cc2ccc(O)cc2)NC(=O)[C@H](C(C)C)NC1=O,isocratic RP-HPLC,C18 column,"pH 7.4, 25 °C, elution method 2",higher = more lipophilic,log retention factor,-0.509
CC(C)[C@@H]1NC(=O)CNC(=O)[C@H](CC(N)=O)NC(=O)[C@H](CCCNC(=N)N)NC(=O)[C@H](Cc2ccc(O)cc2)NC(=O)[C@H](C(C)C)NC(=O)[C@@H](NC(=O)[C@@H](NC(=O)[C@H](CC(N)=O)NC(=O)[C@H](Cc2c[nH]c3ccccc23)NC(=O)[C@H](C)NC(=O)[C@H](Cc2ccccc2)NC(=O)CN)C(C)C)CSSC[C@@H](C(=O)N[C@@H](Cc2cnc[nH]2)C(=O)N[C@@H](CCCNC(=N)N)C(=O)N[C@@H](CCCNC(=N)N)C(=O)N[C@@H](C)C(=O)N[C@@H](CC(N)=O)C(N)=O)NC(=O)[C@H](C(C)C)NC(=O)[C@H](CCCNC(=N)N)NC1=O,,"ICR mice, serum","intraperitoneal, 5 mg/kg, day 5",,creatinine,85.5 ± 3.97 µmol/L
COc1ncnn2ccc(-c3cnc4nc(C)n(Cc5nnc([C@@H](C)F)o5)c4c3)c12,,human patients,"oral, dose not given",,incidence of grade 1 decreased WBC,0%
COc1ccc2nc3cc(Cl)ccc3c(Nc3cc(CN4CCCC4)c(O)c(CN4CCCC4)c3)c2n1,,"mouse, blood","intraperitoneal, 28 mg/kg",,neutrophils,17.7%
CC(C)=CC1C(C(=O)OC(C#N)c2cccc(Oc3ccccc3)c2)C1(C)C (stereo not drawn),refers to: CYP2B6,"human, age 6 months",,,enzyme contribution to clearance,0.85%
Cn1cncc1-c1c(F)cncc1NC(=O)c1c(N)nn2cc(F)cnc12,,human patients,"oral, 220 mg once daily",,grade ≥3 hyperkalaemia incidence,0%
CN1CC[C@@H](c2c(O)cc(O)c3c(=O)cc(-c4ccc(C(F)(F)F)cc4Cl)oc23)[C@@H]1CO,refers to: Diarrhea,relapsed or refractory haematological malignancies,"oral, dose not given, all grades",,adverse event incidence,30%
CCC[C@@](N)(CO)CCc1ccc(OCCCCCC(C)C)cc1,,"hound dogs, male","oral, 20 mg/kg, capsule, fed state, median",,half-life,15.2 h
CN[C@H]1CC[C@@H](c2ccc(Cl)c(Cl)c2)c2ccccc21,,"CD-1 mouse, male, lung","intraperitoneal, 30 mg/kg",,Tmax,0.25 h
O=C(Nc1ccccc1)C1CCN(C(=O)Oc2cccnc2)CC1,refers to: Somnolence,healthy female human,"concentration not given, all doses pooled",,adverse event incidence,17%
CC(C)C[C@@H]1NC(=O)[C@H](CCCCN)NC(=O)[C@H](CC(N)=O)NC(=O)[C@H](CCCNC(=N)N)NC(=O)[C@H]([C@@H](C)O)NC(=O)[C@@H]2CSSC[C@@H]3NC(=O)[C@H]([C@@H](C)O)NC(=O)CNC(=O)CNC(=O)[C@H](C(C)C)NC(=O)[C@@H]4CSSC[C@H](NC(=O)[C@H]([C@@H](C)O)NC(=O)[C@H](CSSC[C@H](NC(=O)[C@H](C(C)C)NC(=O)[C@@H]5CCCN5C1=O)C(=O)NCC(=O)N[C@@H](CCC(=O)O)C(=O)N[C@@H]([C@@H](C)O)C(=O)N4)NC(=O)CNC(=O)[C@@H]1CCCN1C(=O)[C@H]([C@@H](C)O)NC(=O)[C@H](CC(N)=O)NC3=O)C(=O)N[C@@H](CO)C(=O)N[C@@H](Cc1c[nH]c3ccccc13)C(=O)N1CCC[C@H]1C(=O)N[C@@H](C(C)C)C(=O)N2,HPLC,ammonium bicarbonate,"180 µM, 7 days, pH 9.0, 25 °C, deamidation stability",,remaining peptide,99.3 ± 0.9%
NC(=O)[C@H]1CCN(c2ncnc(N)c2F)C[C@@H]1N1CCC[C@@H](Nc2cc(Cl)cc(C(F)(F)F)c2)C1=O,,B-cell malignancy patients,"oral, 328 mg twice daily, dose",,any grade ≥3 adverse event,0%
c1ccc2c(c1)-c1ccc3ccc4cccc5cc-2c1c3c45,,fresh water,"20 °C, S30-1 sampler, 30 µm",,log K(PDMS-water),5.5 ± 0.09
O=C(Nc1ccccc1)C1CCN(C(=O)Oc2cccnc2)CC1,,healthy women,"oral, 100 mg, 9 days",,adverse event Palpitations,0%
CO[C@H]1C[C@@H]2CC[C@@H](C)[C@@](O)(O2)C(=O)C(=O)N2CCCC[C@H]2C(=O)O[C@H]([C@H](C)C[C@@H]2CC[C@@H](OC(=O)NCCOCCOCCOCCOCCOCCOCCOCCOCCC(=O)N3CCc4cc(Cn5nc(-c6ccc7oc(N)nc7c6)c6c(N)ncnc65)ccc4C3)[C@H](OC)C2)C[C@@H](O)[C@H](C)/C=C(\C)[C@@H](O)[C@@H](OC)C(=O)[C@H](C)C[C@H](C)/C=C/C=C/C=C/1C,phase 1 dose escalation,advanced solid tumour patients,"intravenous, 8 mg weekly, grade ≥3",,AEs causing dose modification,31.3%
C[C@H]1C[C@@H](N2C(=N)N[C@](C)(c3cccc(NC(=O)c4cccc(C#N)c4)c3Cl)CC2=O)CCO1,,rat,"1000 mg/kg, every other day",,glucose change,37%
CCCCc1nc2cc(/C=C/C(=O)NO)ccc2n1CCN(CC)CC,,"mouse, SET-2 subcutaneous xenograft","75 mg/kg every other day, day 18",baseline: baseline,body weight,100%
O=S(=O)(Nc1ccccc1)c1ccc(NC(=S)Nc2ccccc2)cc1,,"female mouse, blood","oral, 5 mg/kg daily, 14 days",,potassium level,8 mmol/L
CCc1ccc(CC/C=C/c2ccc3c(c2)C(=O)CC3)cc1,,"Sprague-Dawley rat, male","oral, 450 mg/kg/day, 14 days",,Mononuclear percentage,3%
C[C@@H]1OC(=O)NN=C1c1ccc(-c2ccc(F)cc2)c(C(F)(F)F)c1,"phase I trial, refers to: AST increased all grades",human patients,10 mg loading then 0.5 mg daily,,patients with adverse event,0%
Clc1cc(-c2cc(Cl)c(Cl)c(Cl)c2)cc(Cl)c1Cl,,fresh water,"20 °C, S30-1 sampler, 30 µm",,log K(PDMS-water),6.27 ± 0.08
COc1cc2c(Oc3ccc4[nH]c(C)cc4c3F)ccnc2cc1OCC1(N)CC1,,paediatric recurrent refractory sarcoma,8 mg,,grade 1 or 2 Cholesterol elevation,0%
CC(C)[C@H](N)C(=O)N1CCC[C@H]1B(O)O,"refers to: body weight, serum chemistry, blood counts",NSG mice bearing MV4-11,"intraperitoneal, 20 µg, day 23",,tolerability,no effect
O=C1Nc2cc3[nH]nc(-c4ccncc4)c3cc2CN1Cc1ccccc1,refers to: subretinal fluid,patients with advanced solid tumours,"intravenous, dose not given",,patients with TEAE,22%
CN1CCN(S(=O)(=O)c2cc([N+](=O)[O-])ccc2N(CCOS(C)(=O)=O)CCOS(C)(=O)=O)CC1,,"NSG mice, plasma","intraperitoneal, 10 mg/kg, 2 h",,concentration,not detected
